Results pooled from the literature.
Numbered parts are unrelated; each lists some results of a single study.

Block 1 — technique: RNA Bind-n-Seq; molecule type: RNA; sample: in vitro; concentration: 365 nM; relative to: no-protein control; reading: higher = stronger binding; quantity: RBNS enrichment (R)
Target: RNA binding protein fox-1 homolog 2, RRM domain, GST-SBP tag (RBFOX2, Homo sapiens, UniProt O43251-10, residues 100-194)
Setting: natural RNA segment, single round, ends assumed
Constant ends, left off below: GGGAGUUCUACAGUCCGACGAUC … UGGAAUUCUCGGGUGCCAA
Residues (chain): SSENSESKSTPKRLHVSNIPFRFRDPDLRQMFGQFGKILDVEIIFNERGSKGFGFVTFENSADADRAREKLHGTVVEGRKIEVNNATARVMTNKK
UAUUAUAUUUGGAUGCAGAGUUCAGGGAAGAUAAGUUGGAAACACUAAAUGUUAAAGAUGUAGCAAACCCUGUCAAACAUUAGUACUUUAUAGAAGAAUGCAUGCUUUCC: 17.2
AUACACUUUUGUAAAGAAGUAUAUUUUUAUGAAAAGAAACUUUGUAAAAGUAUGAUGUAAAUUUUCAGUGCAAUGUAAACAAAAUAAAAAUGGAUAAUUGCUUUUGUAAA: 0.699
UUGCCACCCUCAUAGCUUUCCCACAUCUUGUAGGUGCCAUAUACAAUGCCUUAAUGUAAUUAGCCUCAGUUUGAGGACACCAUACAAGACGUGGGACACCAUUCAAUUGA: 0.413
AGGGAUCCCGUUUCAUGCUGAAGGCCGGCACCCCUGUUCUUAAUGGGUAAGAAUUUCCGCUCCUACUUGCUAGAUCUGCGAAAUACUAGCACUCCUUUCAAGGGUGUUGG: 0.236
UUGCUGGCCGCCUUCAGAAUCGGGGGGAGUUUAGUCUGAGACAUCCCUGCUCCCCCUUUUUUCAAGUGCCUUAAUAGCAGGGCAAACUGUAGAGUCAGGAGGGCAGGCUA: 0.329
CCUGAGAGCCCAGCCAGGGCCCAUGUGGUCUGCAAAUGGGAGCGGCUGUUUUUGAACACGGGGUCAUUCUGCAGUCAGGACGAACCGGUCCCCGUCGCAGACGGAGUGCA: 2.96
GCCAGGAUGAGGACACGCACUGCCCUCCAUAGACACAGAUGAAGGGGUGGGGGUCAUUCAGCUCGAAUGGGUCCCAGAUGCUCACUUGGCCUUUCCCUGCAGGAUGAGUG: 0.557
CCCACUUUGAAAUCUCACAGAAUCUUGCUGGUAAUGGUGACUUUAGAACUAGUAGACCCUUUUUCCCAGGCACUGACCCCCCACCUUUGUCUGUGUUGUGCCCAAGUGCC: 0.361
CUACUUCAUUACCGCACUUUCUUGUAUUAAUAGUAUCUUAAAGCUGUUUUUAUUUUUCUUAGAAAUGAGAGACACUGGCAGUCAUAACUGUACUAGUUACUAUGAACAUG: 0.426
AAGGCCUCCCCAUCUGGGAAAUAGAACUGGAUAUUUUGCCUCAUUCACUUGUACUGUAAUAGUGUAUAUAACUUAGUUGGUAUUUCACUAUUUAAUUUUUAAGAAGCCUA: 0.458
GGAGUGCAGUGGCAUGAUCUCAGCCACUGCAACCUCUGCCUCCCGGGUUCAAGCGAUUCUUCUGCCUCAGCCUCCCAAGUAGUUGGGAUUACAGACAUGUGCCACCACGC: 0.235
UCUUGCCACUGGUGAGAGAAGGCCCUUGUCUCCUCAGACUAGGAGGUCUCCCACAGUGACAGCUCCUGGGUCCUUGUUCAGGAAAAGCCUGUGUGUUACCACUGCCUCAU: 0.23

Block 2 — technique: universal PBM; molecule type: double-stranded DNA, one strand shown; sample: in vitro; concentration: not given; reading: higher = stronger binding; quantity: E-score
Target: Sal-like protein 4, full length isoform B (SALL4, Homo sapiens, UniProt Q9UJQ4-2, residues 1-616)
Setting: 8-mer, flanks averaged, mean of replicates
ATAAACGA: 0.328
ATCCACAA: 0.186
ACTTAGCT: -0.121
AAAGCACG: -0.0653
ACTTGTTG: 0.0312
CCCAGACG: -0.232
GAAGCTAA: -0.0262
AATAGCAT: 0.232
ACGTTCCT: 0.0974
ACGTTGTC: -0.0154
CAAGACTG: 0.104
CATTTAGG: -0.0273
ACTTCCCC: -0.0993
CACAAGAG: 0.0215
AGCGCTAT: 0.154
AGCAAACG: -0.139
CGTATTAG: 0.183

Block 3 — technique: RNA Bind-n-Seq; molecule type: RNA; sample: in vitro; concentration: 1 µM; setting: whole 134-nt RNA, ends assumed; together with: 150 mM KCl; relative to: input library; reading: higher = stronger binding; quantity: log2 enrichment
Target: Ras GTPase-activating protein-binding protein 1, C-terminal RGG region (G3BP1, Homo sapiens, UniProt Q13283)
Chain of UniProt Q13283 (whole entry, looked up): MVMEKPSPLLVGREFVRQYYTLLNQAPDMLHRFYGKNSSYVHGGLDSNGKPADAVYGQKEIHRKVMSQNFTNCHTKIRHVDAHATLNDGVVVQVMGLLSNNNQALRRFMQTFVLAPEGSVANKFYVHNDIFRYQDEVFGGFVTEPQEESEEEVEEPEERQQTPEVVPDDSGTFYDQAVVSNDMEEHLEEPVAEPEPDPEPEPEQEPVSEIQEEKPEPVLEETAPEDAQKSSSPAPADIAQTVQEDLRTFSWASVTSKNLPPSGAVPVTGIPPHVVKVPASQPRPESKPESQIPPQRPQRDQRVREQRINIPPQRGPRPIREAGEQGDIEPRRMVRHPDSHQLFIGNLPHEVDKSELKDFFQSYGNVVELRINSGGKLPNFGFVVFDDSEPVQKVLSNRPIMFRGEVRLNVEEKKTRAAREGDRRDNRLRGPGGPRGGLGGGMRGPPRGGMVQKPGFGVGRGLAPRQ
Constant ends, left off below: GGGAGUUCUACAGUCCGACGAUC … UGGAAUUCUCGGGUGUCAAGG
UCAAGUCCUGUGCUACACAUCGUAUGUACCGAAUCGGUUUGGAAAGGUUUUUGGAAAGUAUUAUGUUACGCCGUUCGGAUCUGCACUUCC: -1.1
UCCAAACCCAAGAAAAAGAAAUCUUUUUCCAAGGAGGAGUUGAUGAGUAGCGAUCUUGAAGAGACCGCUGGCAGCACCAGUAUUCCCAAG: -0.969
CUGUGCUACACAUCGUAUGUACCGAAUCGGGCCCCCCCGGGGCCCCCCCGGCCCCCCCGGGGAAAGUAUUAUGUUACGCCGUUCGGAUCU: -2.27
UCAAGUCCUGUGCUACACAUCGUAUGUACCGAAUCGGAAAGGAAAGGGAAAGGGGAAAGUAUUAUGUUACGCCGUUCGGAUCUGCACUUC: -1.48
UCCUGUGCUACACAUCGUAUGUACCGAAUCGUGUGUGUGUGUGUGUGUGUGUGUGUGUGUAAAGUAUUAUGUUACGCCGUUCGGAUCUGC: 1.48
AUUUCUCAGUUGAAGGAUGCUUACACUCUUGUCCAUCUAGACCUCAAUUACUGUUUUUCAGGAAUGUCUGAUCACAGAUACGGGGAUGGU: -1.17
CAAGUCCUGUGCUACACAUCGUAUGUACCGAAUCGGAAAGGAAAGGGGAAAGGGGAAAGUAUUAUGUUACGCCGUUCGGAUCUGCACUUC: -1.02
CCUGUGCUACACAUCGUAUGUACCGAAUCGGGGAAAAAAGGAAAAAAGGGGAAAAAAGGGGAAAGUAUUAUGUUACGCCGUUCGGAUCUG: -1.56
CUCAAGUCCUGUGCUACACAUCGUAUGUACCGAAUCGGAGGUUUGGAAAAAGGAAAGUAUUAUGUUACGCCGUUCGGAUCUGCACUUCCA: -1.28
AGUCCUGUGCUACACAUCGUAUGUACCGAAUCGGGGUUUUUGGUUUUUGGUUUUUGGAAAGUAUUAUGUUACGCCGUUCGGAUCUGCACU: -1.66
UUUUCUGUUUGAAACAGUUUUAUACUUUCUGAUAUAGUACUUGAAAUUCUUACCAGAAAAUUACUUUGGAGUUUUGAAGCCUUUAUUAAU: -1.07
UGGGAGGUGGAUUUUGUUUAUUUUUUUAGCUCAUUUCCAGGGGUGGGAAUUUUUUUUUAAUAUGUGUCAUGAAUAGAGUUGUUUUUGAAA: 1.62
CAAGUCCUGUGCUACACAUCGUAUGUACCGAAUCGGGGCCCGGCCCGGCCCGGGGAAAGUAUUAUGUUACGCCGUUCGGAUCUGCACUUC: -2.11
CCUGUGCUACACAUCGUAUGUACCGAAUCGGGAAAAAAGGGGAAAAAAGGGGAAAAAAGGGAAAGUAUUAUGUUACGCCGUUCGGAUCUG: -0.99

Block 4 — technique: protein binding microarray; molecule type: double-stranded DNA, one strand shown; sample: in vitro; concentration: not given; relative to: not given; reading: higher = stronger binding; quantity: E-score
Target: Histone acetyltransferase KAT6A, winged helix 1, GST fusion (KAT6A, Homo sapiens, UniProt Q92794, residues 1-85)
Setting: 8-mer, flanks averaged, mean of 2 arrays, mostly near background
Construct (chain): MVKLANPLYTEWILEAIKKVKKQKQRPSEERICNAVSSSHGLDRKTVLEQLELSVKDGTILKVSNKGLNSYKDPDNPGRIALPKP
AATTGGGG: -0.218
CGTCAAGA: 0.0195
ACCACGCA: 0.00685
ACGCCAAA: -0.0726
TTCGCAAA: -0.0351
GGAATCCC: -0.0524
AGGGTTGC: -0.2
GCAGAAAC: -0.00745
CACAGTAC: -0.156
CATGCGCG: 0.423
ACTGGTCG: -0.0541
ATGCACTA: -0.102
ATCCAGAT: -0.136
TCCGGCGA: 0.224
AAAACAAT: -0.0512
AATACTTC: -0.136

Block 5 — technique: aptamer microarray, sandwich; molecule type: DNA with 2'F-ANA; sample: in vitro; concentration: 200 nM; together with: Cy3 exosite-II aptamer, 400 nM; reading: higher = stronger binding; quantity: mean fluorescence intensity; sequence: GGTTGGTGTGGTTGG
Target: Prothrombin, mature alpha-thrombin (F2, Homo sapiens, UniProt P00734)
Setting: whole 15-mer aptamer, many near background
2'F-ANA at 3 6 10 12 15: 577 a.u.
2'F-ANA at 1 4 5 6 8 9 11: 55.3 a.u.
2'F-ANA at 1 3 4 7 9 11 12 13 14: 70.3 a.u.
2'F-ANA at 1 2 3 4 6 7 13 14: 56.5 a.u.
2'F-ANA at 1 2 3 5 6 11 12 14 15: 47.4 a.u.
2'F-ANA at 1 3 9 13: 234 a.u.
2'F-ANA at 1 5 6 7 8 9 11 12 14: 51.1 a.u.
2'F-ANA at 1 2 5 15: 60.7 a.u.
2'F-ANA at 4 5 6 7 9 10 11 13 15: 48.4 a.u.
2'F-ANA at 1 3 4 6 10 15: 59.6 a.u.
2'F-ANA at 2 5 6 7 10 11 13 14 15: 48.5 a.u.
2'F-ANA at 1 3 6 8 9 12 15: 535 a.u.
2'F-ANA at 2 4 7 9 10 12 13 14 15: 125 a.u.
2'F-ANA at 2 3 7 8 9 11 12 13 14 15: 434 a.u.
2'F-ANA at 3 11 12 14 15: 636 a.u.
2'F-ANA at 1 3 4 7 13 15: 200 a.u.
2'F-ANA at 1 2 5 6 7 9 10 11: 47.7 a.u.
2'F-ANA at 6 8 9 13 15: 330 a.u.
2'F-ANA at 2 3 7 8 9 11 12 14 15: 527 a.u.
2'F-ANA at 1 3 4 5 9 14: 42.8 a.u.
2'F-ANA at 1 3 4 6 9 10 11 12 14: 58.5 a.u.
2'F-ANA at 2 3 6 7 12 13 14: 393 a.u.
2'F-ANA at 1 2 3 4 7 9 10 15: 59.9 a.u.
2'F-ANA at 2 5 6 9 11 12 15: 114 a.u.
2'F-ANA at 3 4 5 8 10 11 13 15: 70.4 a.u.

Repeated from above (block 2):
CCCAGACG: -0.232
GAAGCTAA: -0.0262
AATAGCAT: 0.232
ACGTTCCT: 0.0974
ACGTTGTC: -0.0154
CAAGACTG: 0.104
CATTTAGG: -0.0273
ACTTCCCC: -0.0993
CACAAGAG: 0.0215
